Published values pooled from the literature.
Lines come from different studies, so protocols differ. ± marks the error that the study gave.

The tissue uptake of `CC[C@H](C)[C@H](NC(=O)[C@H](CCCCN)NC(=O)CNC(=O)[C@H](CC(C)C)NC(=O)[C@H](Cc1ccccc1)NC(=O)[C@H](CCCCN)NC(=O)[C@H](CO)NC(=O)[C@H](Cc1ccccc1)NC(=O)[C@H](Cc1c[nH]c2ccccc12)NC(=O)[C@H](CCC(N)=O)NC(=O)[C@@H](NC(=O)[C@H](Cc1ccccc1)NC(=O)CCCCCNC(=O)CN1CCN(CC(=O)O)CCN(CC(=O)O)CCN(CC(=O)O)CC1)C(C)C)C(=O)N[C@@H](CCC(=O)O)C(=O)N1CCC[C@H]1C(=O)N[C@@H](CC(=O)O)C(=O)N[C@H](C(=O)N[C@@H](CO)C(=O)N[C@@H](CCC(N)=O)C(=O)N[C@H](C(=O)N[C@@H](CCC(N)=O)C(=O)N[C@@H](CC(=O)O)C(=O)N1CCC[C@H]1C(=O)N[C@@H](CC(N)=O)C(=O)N[C@@H](CC(=O)O)C(=O)N[C@@H](CCC(N)=O)C(=O)N[C@@H](Cc1ccc(O)cc1)C(=O)N[C@@H](CCC(=O)O)C(=O)N1CCC[C@H]1C(=O)N[C@@H](Cc1ccccc1)C(=O)O)C(C)C)C(C)C` [copper-64 labelled] is reported as 0.47 ± 0.1 %ID/g (C57BL/6 mice, male, naive, white fat; 2 h).
`CSCC[C@H](N)C(=O)N[C@@H](C)C(=O)N[C@@H](Cc1c[nH]c2ccccc12)C(=O)N[C@@H](Cc1c[nH]cn1)C(=O)N[C@@H](CC(=O)O)C(=O)N[C@@H](CC(=O)O)C(=O)N[C@@H](CCC(=O)O)C(=O)N[C@@H](CCC(=O)O)C(=O)N[C@@H](Cc1ccccc1)C(=O)N[C@@H](C)C(=O)N[C@@H](CCCNC(=N)N)C(=O)N[C@@H](CCCNC(=N)N)C(=O)N[C@@H](CCCNC(=N)N)C(=O)N[C@@H](CCCNC(=N)N)C(=O)NCCCCCC(=O)NCCCCC(NC(=O)CCCCCNC(=O)[C@H](CCCNC(=N)N)NC(=O)[C@H](CCCNC(=N)N)NC(=O)[C@H](CCCNC(=N)N)NC(=O)[C@H](CCCNC(=N)N)NC(=O)[C@H](C)NC(=O)[C@H](Cc1ccccc1)NC(=O)[C@H](CCC(=O)O)NC(=O)[C@H](CCC(=O)O)NC(=O)[C@H](CC(=O)O)NC(=O)[C@H](CC(=O)O)NC(=O)[C@H](Cc1c[nH]cn1)NC(=O)[C@H](Cc1c[nH]c2ccccc12)NC(=O)[C@H](C)NC(=O)[C@@H](N)CCSC)C(=O)NCCCCC(NC(=O)C(CCCCNC(=O)CCCCCNC(=O)[C@H](CCCNC(=N)N)NC(=O)[C@H](CCCNC(=N)N)NC(=O)[C@H](CCCNC(=N)N)NC(=O)[C@H](CCCNC(=N)N)NC(=O)[C@H](C)NC(=O)[C@H](Cc1ccccc1)NC(=O)[C@H](CCC(=O)O)NC(=O)[C@H](CCC(=O)O)NC(=O)[C@H](CC(=O)O)NC(=O)[C@H](CC(=O)O)NC(=O)[C@H](Cc1c[nH]cn1)NC(=O)[C@H](Cc1c[nH]c2ccccc12)NC(=O)[C@H](C)NC(=O)[C@@H](N)CCSC)NC(=O)CCCCCNC(=O)[C@H](CCCNC(=N)N)NC(=O)[C@H](CCCNC(=N)N)NC(=O)[C@H](CCCNC(=N)N)NC(=O)[C@H](CCCNC(=N)N)NC(=O)[C@H](C)NC(=O)[C@H](Cc1ccccc1)NC(=O)[C@H](CCC(=O)O)NC(=O)[C@H](CCC(=O)O)NC(=O)[C@H](CC(=O)O)NC(=O)[C@H](CC(=O)O)NC(=O)[C@H](Cc1c[nH]cn1)NC(=O)[C@H](Cc1c[nH]c2ccccc12)NC(=O)[C@H](C)NC(=O)[C@@H](N)CCSC)C(N)=O` (stereo partly drawn) — result for “mean tissue distribution”: 0.75% (C57BL/6 mouse female, spleen; dose not given, 3 h; relative to: total).
For `Cn1nc(NS(C)(=O)=O)c2c(Cl)ccc(-n3c([C@H](Cc4cc(F)cc(F)c4)NC(=O)Cn4nc(C(F)F)c5c4C(F)(F)[C@@H]4C[C@H]54)nc4nc(OCCC(F)(F)F)ccc4c3=O)c21`, the tmax was 9 h (human, plasma; oral, 1875 mg single dose, powder in bottle, median).
The creatinine of `CC(C)[C@@H]1NC(=O)CNC(=O)[C@H](CC(N)=O)NC(=O)[C@H](CCCNC(=N)N)NC(=O)[C@H](Cc2ccc(O)cc2)NC(=O)[C@H](C(C)C)NC(=O)[C@@H](NC(=O)[C@@H](NC(=O)[C@H](CC(N)=O)NC(=O)[C@H](Cc2c[nH]c3ccccc23)NC(=O)[C@H](C)NC(=O)[C@H](Cc2ccccc2)NC(=O)CNC(=O)[C@H](CCCCN)NC(=O)[C@H](Cc2ccccc2)NC(=O)[C@H](Cc2ccccc2)NC(=O)[C@H](CCCCN)NC(=O)OCC2c3ccccc3-c3ccccc32)C(C)C)CSSC[C@@H](C(=O)N[C@@H](Cc2c[nH]cn2)C(=O)N[C@@H](CCCNC(=N)N)C(=O)N[C@@H](CCCNC(=N)N)C(=O)N[C@@H](C)C(=O)N[C@@H](CC(N)=O)C(N)=O)NC(=O)[C@H](C(C)C)NC(=O)[C@H](CCCNC(=N)N)NC1=O` is reported as 87.2 ± 1.32 µmol/L (ICR mice, serum; intraperitoneal, 5 mg/kg, day 5).
For `COc1nc(CC=C(C)CC=CC(C)=CC(C)C(OC2OC(CO)C(O)C(O)C2O)C(C)=CCO)c(C)c(O)c1OC` (stereo not drawn), the clearance was 940 mL/min/kg (male C57BL/6 mouse, plasma; intravenous, 2 mg/kg).
`CN1Cc2cc(Cl)ccc2-n2c(nnc2C2CCN(c3cccc([18F])n3)CC2)C1`: “total volume of distribution” 0.98 ± 0.29 mL/cm3 (PET two-tissue compartment model; rhesus monkey, hippocampus; intravenous, dose not given, 60 min scan, baseline scan).
`COc1cc2c(cc1O)C(CCc1ccc(Cl)cc1)N([11CH3])CC2` (stereo not drawn) — result for “half-maximal concentration, time to”: 11 min (PET; Sprague-Dawley rat, male, brain NR2B-rich regions; intravenous, 1 mg/kg, carrier added).
`CCCCC(CC)COC(=O)CC(C(=O)OCC(CC)CCCC)S(=O)(=O)O.CCCSc1ccc2[nH]c(NC(=O)OC)nc2c1` (stereo not drawn) gave a solubility of less than 5000 µg/mL (visual inspection; Miglyol 812).
With `Cc1ccc(CNC(=O)c2ccn3c(-c4ccc(C#N)cc4)cnc3c2)cn1` the unbound fraction was 0.066 (human plasma).
`CC[C@H](C)[C@H](NC(=O)[C@H](C)NC(=O)[C@H](C)NC(=O)[C@H](CCC(N)=O)NC(=O)CNC(=O)[C@H](CC(C)C)NC(=O)[C@H](Cc1c[nH]cn1)NC(=O)[C@H](CCCCN)NC(=O)[C@H](C)NC(=O)CNC(=O)[C@H](CCCCN)NC(=O)[C@H](CCCNC(=N)N)NC(=O)[C@H](CC(C)C)NC(=O)[C@H](Cc1c[nH]c2ccccc12)NC(=O)[C@H](CCCCN)NC(=O)[C@H](CCCCN)NC(=O)[C@H](Cc1c[nH]c2ccccc12)NC(=O)CN)C(=O)N[C@@H](CCCCN)C(=O)NCC(=O)N[C@@H](CC(C)C)C(=O)N[C@@H](C)C(=O)N[C@@H](CO)C(=O)O` — result for “chronic toxic concentration”: 5 µM (zebrafish embryos 4 hpf, E3 medium; 24 h).
`O=C1NC2(CC2)COc2ncc(F)cc2[C@H]2COCCN2c2ccn3ncc1c3n2` — result for “organ-to-brain weight ratio”: 3.9 ± 0.42% (Sprague-Dawley rat, female, adrenals; oral, 5 mg/kg/day, 4 weeks, end of treatment).
For `COc1cnc2cccc(N3CCc4c(cc(Cn5ccnc5)cc4-c4cn(C)nc4C(F)(F)F)C3=O)c2c1`, “body weight change” read 2% (CD-1 mouse; intraperitoneal, 50 mg/kg once daily, day 2, dose-escalation tolerability; relative to: day 1).

For quick reference, copied from above:
`CSCC[C@H](N)C(=O)N[C@@H](C)C(=O)N[C@@H](Cc1c[nH]c2ccccc12)C(=O)N[C@@H](Cc1c[nH]cn1)C(=O)N[C@@H](CC(=O)O)C(=O)N[C@@H](CC(=O)O)C(=O)N[C@@H](CCC(=O)O)C(=O)N[C@@H](CCC(=O)O)C(=O)N[C@@H](Cc1ccccc1)C(=O)N[C@@H](C)C(=O)N[C@@H](CCCNC(=N)N)C(=O)N[C@@H](CCCNC(=N)N)C(=O)N[C@@H](CCCNC(=N)N)C(=O)N[C@@H](CCCNC(=N)N)C(=O)NCCCCCC(=O)NCCCCC(NC(=O)CCCCCNC(=O)[C@H](CCCNC(=N)N)NC(=O)[C@H](CCCNC(=N)N)NC(=O)[C@H](CCCNC(=N)N)NC(=O)[C@H](CCCNC(=N)N)NC(=O)[C@H](C)NC(=O)[C@H](Cc1ccccc1)NC(=O)[C@H](CCC(=O)O)NC(=O)[C@H](CCC(=O)O)NC(=O)[C@H](CC(=O)O)NC(=O)[C@H](CC(=O)O)NC(=O)[C@H](Cc1c[nH]cn1)NC(=O)[C@H](Cc1c[nH]c2ccccc12)NC(=O)[C@H](C)NC(=O)[C@@H](N)CCSC)C(=O)NCCCCC(NC(=O)C(CCCCNC(=O)CCCCCNC(=O)[C@H](CCCNC(=N)N)NC(=O)[C@H](CCCNC(=N)N)NC(=O)[C@H](CCCNC(=N)N)NC(=O)[C@H](CCCNC(=N)N)NC(=O)[C@H](C)NC(=O)[C@H](Cc1ccccc1)NC(=O)[C@H](CCC(=O)O)NC(=O)[C@H](CCC(=O)O)NC(=O)[C@H](CC(=O)O)NC(=O)[C@H](CC(=O)O)NC(=O)[C@H](Cc1c[nH]cn1)NC(=O)[C@H](Cc1c[nH]c2ccccc12)NC(=O)[C@H](C)NC(=O)[C@@H](N)CCSC)NC(=O)CCCCCNC(=O)[C@H](CCCNC(=N)N)NC(=O)[C@H](CCCNC(=N)N)NC(=O)[C@H](CCCNC(=N)N)NC(=O)[C@H](CCCNC(=N)N)NC(=O)[C@H](C)NC(=O)[C@H](Cc1ccccc1)NC(=O)[C@H](CCC(=O)O)NC(=O)[C@H](CCC(=O)O)NC(=O)[C@H](CC(=O)O)NC(=O)[C@H](CC(=O)O)NC(=O)[C@H](Cc1c[nH]cn1)NC(=O)[C@H](Cc1c[nH]c2ccccc12)NC(=O)[C@H](C)NC(=O)[C@@H](N)CCSC)C(N)=O` (stereo partly drawn) — result for “mean tissue distribution”: 0.75% (C57BL/6 mouse female, spleen; dose not given, 3 h; relative to: total).
